Results collected from several papers.
Each numbered part is a random draw from the data of one study; scales do not carry over between parts. Positions count from the first letter of the parent shown.

Series 1 — target: NFIL3, bZIP domain (human); technique: DHFR protein complementation; sample: yeast; relative to: wild-type JUN-FOS pair; reading: higher = stronger binding
Setting: single substitutions, most at no-binding floor
Parent: JUN, bZIP domain (human); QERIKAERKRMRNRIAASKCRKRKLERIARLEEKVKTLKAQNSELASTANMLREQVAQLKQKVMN; partner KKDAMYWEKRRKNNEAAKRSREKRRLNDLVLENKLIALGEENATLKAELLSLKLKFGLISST
Change	binding fitness [natural log]
S43P	-1.48
L38H	-1.53
Q41S	-1.51
K34C	-1.4
K34E	-1.54
N42F	-1.53
T48Y	-1.59
V35S	-1.56
L38P	-1.52
V35F	-1.36
E33N	-1.56
V35G	-1.49
E32I	-1.46
A49R	-1.41
A57T	-1.52

Series 2 — target: CCNA1, cyclin fold, Cln2 fusion (human); technique: yeast growth competition, sequencing; sample: yeast; setting: weak parent motif; relative to: not given; reading: higher = stronger binding
Parent: EXO1 docking peptide (human); KPECGRVQRAIFQ
Change	normalised enrichment score
R6A	0.101
G5A	-0.19
E3A	-0.0845
Q13A	0.111
P2A	0.341
C4A	-0.14

Series 3 — technique: protein-binding microarray; molecule type: double-stranded DNA, one strand shown; sample: in vitro; concentration: not given; reading: higher = stronger binding
Target: Protein max, full length (MAX, Homo sapiens, UniProt P61244-2, residues 1-151)
Setting: k-mer, scored over probes, only values ≥0.25
Strand	E-score
AACTCATG	0.33
AATGTGCT	0.287
AAGCCACG	0.364
GCGTGACA	0.423
AAACACAT	0.385
GATCACAC	0.266
CGTGTAAC	0.326
CACGCGCG	0.439
TGGCCACA	0.366
ACCGCGCG	0.292

Series 4 — technique: RNA Bind-n-Seq; molecule type: RNA; sample: in vitro; concentration: 365 nM; relative to: no-protein control; reading: higher = stronger binding
Target: RNA binding protein fox-1 homolog 2, RRM domain, GST-SBP tag (RBFOX2, Homo sapiens, UniProt O43251-10, residues 100-194)
Setting: natural RNA segment, single round, ends assumed
Strand	RBNS enrichment (R)
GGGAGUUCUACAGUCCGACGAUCUCUUAGGUCUAAACUAUGGUGUCAGUUUUAAUAGAACAAAAGUAUGCAUCUUGCCUUGGCUUGAGCCUUUUCGUUUUCAAUGCUGACUUCUCCCCUUUCUCUCCUGUGCUUGGAAUUCUCGGGUGCCAA	0.75
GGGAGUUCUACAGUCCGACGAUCCAGUACCCACAUGGUCUGCAAAAGCCUGGCUUUGCUGGCAACUAUUGGAGAAUGCUUGGUUUGCAUGUCUUGUGAUUUCUCCUGUAUUGUUCCUAGCUAAUUUCAUGGCUUGGAAUUCUCGGGUGCCAA	9.33
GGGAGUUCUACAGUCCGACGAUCAAUGCUGCGCUCUUUGUGUUUUUCCAUCAUUAGUGCAGUUGGAAUGAAUGUGUAUAGGUCAGAGGUCUUCGUGUUCACAUUUUAAAAUUAGGUAAAUGACCUCAUCUUUCUGGAAUUCUCGGGUGCCAA	0.601
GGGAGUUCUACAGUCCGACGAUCUAAAUCAAGGAACAUCAGUUAAGAGAUUUCCUAAUUUAUUUUUUAACUGAAUAAAUAUCAGUUAAAAGAUUGCCAGCAUGGUUACAGGUAAACUGAUUUUCAGAAUUCACUGGAAUUCUCGGGUGCCAA	7.16
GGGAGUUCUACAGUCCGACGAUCAGUAAAGAAGUGAAUGAGUGGCCAAAGUCUAUAGAGGCUUCCCUUUAGCAAGCCCUGAGAUAUAGUAACUUCCUUGGUUAUGAGUCUUGUUGAAUGACUCCUUUUGGAAAUGGAAUUCUCGGGUGCCAA	1.64
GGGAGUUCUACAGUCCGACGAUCUGACUAGGGUCUUCUCUCUCCCCUGUUCUGAAUGGAGUAAAAGUCUGAUGCCAAGACAAAUAUUGGGAGCGAGCCUUCCUCACUAGCCAUGUCCAAAUAAUGAGCGUAUUUGGAAUUCUCGGGUGCCAA	0.462
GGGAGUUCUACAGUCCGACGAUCGAAGAGCAGUUUGUCCACUCUGGGUGCUGCUGAGGGAGCUGUUUGGGAAGAAGCCAUCCCUGGCCAUAGCCCCCAGGAUACAGCCAGCCCCUGUAGCUGCAAGUAGCAGGUGGAAUUCUCGGGUGCCAA	0.484
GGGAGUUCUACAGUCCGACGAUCGUAUUAUGCAGAAAGUUAAUGCAGAUACCUAUUCAAGAUGAUAACUGUAAAGACACUGCUGUCUCCUUAAUAUGCUCCUUAACACGUAUGUUGAUGUAGCAUCAUUUUGUUGGAAUUCUCGGGUGCCAA	0.581
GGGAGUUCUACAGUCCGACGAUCGGCUGCACUAAAAUUCACUUAGGGUCGAGCAUCCUGUUUGCUGAUAAAUAUUAAGGAGAAUUCAUGACUCUUGACAGCUUUUCUCUCUUCACUCCCCAAGUCAAGGGGAGUGGAAUUCUCGGGUGCCAA	0.471
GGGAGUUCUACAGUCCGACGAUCAGCUAACUUCCUACAAACAUCUGCCUGGAAGAUUAGUAGAAUCCUAAUUCUAGGCUGGAAUGAGCUUCAUGAGGCUUGACAGAGGCUCACUGUCAGCCGUGGCUGGGGGCUGGAAUUCUCGGGUGCCAA	0.762
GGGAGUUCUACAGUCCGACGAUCUAAGAAAUGUGAUGUAGCCGGGCGUGGUGGCACACGCCUUUAAUCCCAGCACUUGGGAGGCAGACGCAGGUGAAUUUCUGAGUUUGAGGCCAGCCUGGUCUACAGAGUGAUGGAAUUCUCGGGUGCCAA	0.399
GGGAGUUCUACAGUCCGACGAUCAAGGGGCCAGAGGCUCGUUGACUGGCUGUGUGUUGGGAUUGAGUCUGUGCCACGUGUUUGUGCUGUGGUGUGUCCCCCUCUGUCCAGGCACUGAGAUACCAGCGAGGAGGUGGAAUUCUCGGGUGCCAA	1.7

Series 5 — technique: DHFR PCA, deep sequencing; sample: yeast; added: (+)-ABA 17 µM; relative to: wild-type fitted maximum; reading: higher = stronger binding
Target: ABI1, truncated, D143A, DHFR fusion (Arabidopsis thaliana)
Setting: methotrexate growth selection, single substitutions
Parent: PYL1, truncated, DHFR fusion (Arabidopsis thaliana); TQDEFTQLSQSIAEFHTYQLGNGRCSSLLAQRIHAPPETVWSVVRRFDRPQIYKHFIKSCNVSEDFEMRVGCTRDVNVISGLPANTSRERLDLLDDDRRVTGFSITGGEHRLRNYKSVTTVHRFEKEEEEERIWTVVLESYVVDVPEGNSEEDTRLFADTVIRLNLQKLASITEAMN; partner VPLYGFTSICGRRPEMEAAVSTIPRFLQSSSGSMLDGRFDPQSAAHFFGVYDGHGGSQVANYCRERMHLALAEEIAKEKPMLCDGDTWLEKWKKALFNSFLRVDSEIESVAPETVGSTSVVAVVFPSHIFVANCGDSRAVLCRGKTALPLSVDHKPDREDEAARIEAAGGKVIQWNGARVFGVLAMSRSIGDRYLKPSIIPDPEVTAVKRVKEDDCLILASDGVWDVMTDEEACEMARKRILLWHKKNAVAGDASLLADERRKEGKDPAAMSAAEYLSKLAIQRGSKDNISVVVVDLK
Change	relative binding score [%]
Q7C	82.1
F66N	58.3
H34L	77.6
A13N	77.4
R111F	12.9
T101G	-3.83
V44R	10.5
D3Q	76.7
T1Q	84.7
N165S	2.85
R74D	-16.5
Q19E	89.2
I105V	81
F15G	-1.7
N114E	15.8
M176F	70.6

Series 6 — technique: protein binding microarray; molecule type: double-stranded DNA, one strand shown; sample: in vitro; concentration: not given; relative to: not given; reading: higher = stronger binding
Target: Histone acetyltransferase KAT6A, both winged helices, GST fusion (KAT6A, Homo sapiens, UniProt Q92794, residues 1-181)
Setting: 8-mer, flanks averaged, mean of 2 arrays, mostly near background
Construct (chain): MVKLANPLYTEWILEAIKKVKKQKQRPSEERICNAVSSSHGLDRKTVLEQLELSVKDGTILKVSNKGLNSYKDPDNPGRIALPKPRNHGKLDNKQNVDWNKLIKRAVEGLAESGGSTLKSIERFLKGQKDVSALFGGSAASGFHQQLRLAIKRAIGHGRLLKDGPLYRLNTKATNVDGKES
Strand	E-score
CGTTCCAG	-0.158
GAACAGTA	0.0175
AAGCCACC	-0.193
AGAGCCGC	0.228
GGCATCTA	-0.129
CCGTTATA	0.128
AGTAGCGA	0.0129
AAAGCCGG	0.305
GAGATCCC	-0.0205
ACGGGGGA	-0.0865
ACACATCA	-0.105
ACAGTACG	0.0136
GAAAGTGA	-0.22
GCATAAAA	-0.0693
GTATTGTA	0.0703
GCTTGCAC	-0.0495
CGGTACAG	0.202
GCACCAAA	-0.133
AGGAGGAT	-0.14
GAATTGAA	-0.0636
CATCTACG	0.126
GGAAACAA	-0.0512
CCGAATAA	0.00187
CGTCCTGA	-0.137
ATAAAACG	0.103

Excerpt of the above (series 3):
Strand	E-score
AACTCATG	0.33
AATGTGCT	0.287
AAGCCACG	0.364
GCGTGACA	0.423
AAACACAT	0.385
GATCACAC	0.266
CGTGTAAC	0.326
CACGCGCG	0.439
TGGCCACA	0.366
ACCGCGCG	0.292
